Results gathered from unrelated publications.
Each numbered part is a random draw from the data of one study; scales do not carry over between parts.

Study 1 — method: RNA Bind-n-Seq; molecule type: RNA; sample: in vitro; concentration: 365 nM; reference: no-protein control; direction: higher = stronger binding
Target: RNA binding protein fox-1 homolog 2, RRM domain, GST-SBP tag (RBFOX2, Homo sapiens, UniProt O43251-10, residues 100-194)
Notes: natural RNA segment, single round, ends assumed
Residues (chain): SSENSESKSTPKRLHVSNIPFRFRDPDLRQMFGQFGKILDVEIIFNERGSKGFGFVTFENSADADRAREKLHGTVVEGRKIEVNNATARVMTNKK
`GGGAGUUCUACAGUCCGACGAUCUCCAAGUUUCUAAAGGCAAAAUUAUGAAUGGCCAUAAUGAAAAGUCCCUUACCUGCCUACCACUAGUGUCACGCAUAGUGUCACAGUGCUUCUGAUACACUCUCAUCUUGUGGAAUUCUCGGGUGCCAA` — result for “RBNS enrichment (R)”: 0.548.
Under “RBNS enrichment (R)”, `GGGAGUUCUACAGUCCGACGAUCUAUGUAAGCUCACAUGGAAGUUUAAGAAUUUCUGUGUUAAUACUUGGAAUAACCCAGAGAAAAGAAGCCAGAAGCCUAAUUCCAGAGAGGAAGGGAAAGAAGUUCUGUAGUGGAAUUCUCGGGUGCCAA` is recorded as 0.731.
`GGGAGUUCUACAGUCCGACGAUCCACGAGGGGGCUUUGAUGGCCCUGGAGAUCCUACAGUAAAUAAACCAGCAUCCUGCCGCCCAAAGCCGCCUCUUCUCAGUUGCCAAACGAGGGGCCUGCCCCCCGCCCUAUGGAAUUCUCGGGUGCCAA`: “RBNS enrichment (R)” 0.435.
Under “RBNS enrichment (R)”, `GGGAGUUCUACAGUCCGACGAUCGGCUCCCUUCAUGGCUUGUGAACUGUUAACUUGGUAUCUCAGGUUAAACUGUCAGCUGGUCUAGCCUGAGCGAGGCCUGAGACCAUCAGUCACUAAGAGCAGUGGCUAACUGGAAUUCUCGGGUGCCAA` is recorded as 0.577.
`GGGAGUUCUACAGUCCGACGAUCAUCUACAUACCUACACCUAUCUAUAUAUAAGCUCAUGGUAGAAAACCAUAGCUAAGUAGCAUCGCAGACUUAAGCGUACAAAGUGAUCUUGUUCACAAGUAAUCUGUUGAUGGAAUUCUCGGGUGCCAA`: “RBNS enrichment (R)” 0.322.
`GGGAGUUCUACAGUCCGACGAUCGCAUUGUGAACAACAAGCUCUUAGUGGUGUAUUUACCUGUUAAAACUUAAAAGCAGUGUUAGUGAGUUAGGCAGAGAGAUGAAAGUAAUACAGUCAGUAAGUUUCACUGCUGGAAUUCUCGGGUGCCAA` — result for “RBNS enrichment (R)”: 0.467.
Under “RBNS enrichment (R)”, `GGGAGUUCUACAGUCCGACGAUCUAGAACAGAGGUAUUUGCAACCUGAAAAACCACUUUUAAUAAGAGCUGUAUGAUAAAUUGUUGAAAUGCAAGUGUAAAUAUUUUUUAUGUUAAUCCAGUUUCCUAUUAGAUGGAAUUCUCGGGUGCCAA` is recorded as 1.66.
For `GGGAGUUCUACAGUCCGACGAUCUCAGUGGUUUAGAAAUGAGAUACCAGUGUUAAUGAAAAGUGUGUGCUCUUUGCUUUUGCAUGGCUUGGCUUAGUAUCCAAGGUAUAUUAGGGCCACUUGAAAGCAUGAAGUGGAAUUCUCGGGUGCCAA`, “RBNS enrichment (R)” read 19.4.

Study 2 — method: universal PBM; molecule type: double-stranded DNA, one strand shown; sample: in vitro; concentration: not given; direction: higher = stronger binding
Target: Sal-like protein 4, full length isoform B (SALL4, Homo sapiens, UniProt Q9UJQ4-2, residues 1-616)
Notes: 8-mer, flanks averaged, mean of replicates
The E-score of `AGTTTTCG` is reported as 0.093.
`AAGGCGCA` has an E-score of -0.153.
`ATCGGAAT` gave an E-score of 0.167.
`AATGCACA` has an E-score of 0.156.
`CGGGAACG` gave an E-score of -0.277.
The E-score of `CGGGAATA` is reported as 0.0793.
For `GAACAGTC`, the E-score was -0.142.
For `ACCTGATC`, the E-score was 0.0291.
For `GTGACTTA`, the E-score was 0.106.
`CGCCATCC` has an E-score of -0.149.
`GCTCCCAA` gave an E-score of -0.169.
The E-score of `AGCGTTCC` is reported as -0.0971.
With `GAGGCCAA` the E-score was -0.148.
For `ACGTAGCT`, the E-score was -0.0187.
`CAGGCATC` gave an E-score of -0.00591.
`CCATGAGG` has an E-score of -0.167.
`CGAACCCG` has an E-score of -0.301.
The E-score of `GCAGAGGA` is reported as -0.124.
`AACAGGCC` has an E-score of -0.252.
With `ACCGATCA` the E-score was 0.0508.
`CGGGCATA` gave an E-score of -0.00139.
`CCCTGGGA` gave an E-score of -0.403.

Study 3 — method: RNA Bind-n-Seq; molecule type: RNA; sample: in vitro; concentration: 100 nM; reference: input RNA pool; direction: higher = stronger binding
Target: RING finger protein unkempt homolog, zinc fingers 1-6, SBP tag (UNK, Homo sapiens, UniProt Q9C0B0, residues 30-357)
Sequence of UniProt Q9C0B0 (30-357, looked up): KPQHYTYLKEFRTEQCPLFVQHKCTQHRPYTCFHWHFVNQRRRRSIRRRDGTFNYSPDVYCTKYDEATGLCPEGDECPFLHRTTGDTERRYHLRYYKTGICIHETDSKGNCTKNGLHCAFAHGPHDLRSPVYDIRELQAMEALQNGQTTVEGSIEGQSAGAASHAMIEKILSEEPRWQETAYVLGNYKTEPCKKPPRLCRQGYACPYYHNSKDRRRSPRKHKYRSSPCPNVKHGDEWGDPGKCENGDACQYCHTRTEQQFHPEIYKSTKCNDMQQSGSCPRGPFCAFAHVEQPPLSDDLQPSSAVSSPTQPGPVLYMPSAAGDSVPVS
Notes: RNA with constant flanks, vertebrate orthologous sites, ends assumed
For `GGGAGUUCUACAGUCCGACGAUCAUGUAGUUUGUUUUUAAUUUCAAGCAAAAUCUUACUGUACUUGAAUGUGCCCUGUUUUGUUAGCACACCUAGACUUGCUGUAACUGUACUCAUGUCCCAGUAUGUACGUUCUUUCUAUGACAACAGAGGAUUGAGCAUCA`, the bound/input enrichment was 0.838 ratio.
The bound/input enrichment of `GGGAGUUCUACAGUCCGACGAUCAUAAGAACUCUUGCAGUCUUAGAUGUUAUAAAAAAUAUAUAUCUGAAUUGUAAGAGUUGUUAGCACAGUUUUUUUUUGUUUGUUUGUUUUUAAACACUUGUUUUGGGUACAAGGCAUUUCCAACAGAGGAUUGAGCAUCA` is reported as 0.509 ratio.
The bound/input enrichment of `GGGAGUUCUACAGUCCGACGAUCAUAGGAGCAGCAUAGGCUGUUUGAGCUUUGGGGUAAUGAGCUUUGCUUUUUAUAUUUAAAUAGGAUACUUUUAUAUGAUGGGUGCUUUGAGUGUGAAUGCAGCAGGCUGUCCAUUUCAGACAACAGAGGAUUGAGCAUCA` is reported as 1.58 ratio.
For `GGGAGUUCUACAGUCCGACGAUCUCUCAUGCCUCCACUGUGAGGGAGAGUGGGGGAAGCUGGAUGACCCUCAGCUGUUCCAGUUUUUUUUUUCUUUUUUAAAAAAUUAGUGUAUUUAUUAUGACGAUGGUGACUCCCCCGUGCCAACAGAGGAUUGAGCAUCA`, the bound/input enrichment was 1.36 ratio.
`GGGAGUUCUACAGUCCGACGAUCCAGUUCCUCGGACUGUCUUUCAGGUUGUGGCUGGCCCAUUUUCCAUUCUUUCUCUCUUACUUUCAUGCACAUGUUUUCAUUUCACAACUUCUUUCAGCAAAAGCACAUGUGGGUAUUUCUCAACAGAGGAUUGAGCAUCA` has a bound/input enrichment of 0.49 ratio.
The bound/input enrichment of `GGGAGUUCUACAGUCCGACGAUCUUAAUGAUCAUAUUGUAUGUAGAGAAAAAUUUUCAUUGUGGAAUUCCCUAGCAAUUUAUUUAGACUUCAUUUUUAAAAUUCAAGCUUACUGUAUUAGGCAUUUUUAGCUCAUAAUUAAAACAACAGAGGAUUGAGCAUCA` is reported as 6.66 ratio.
The bound/input enrichment of `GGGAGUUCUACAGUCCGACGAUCCACAUCGGGUGAUAUUUGGCCUGGCCUUUCAGCUUAUGAUAAUAGUCCCAGAUCACCUCAUAGUCCUUCACCGAUUGCUACACCACCUAGUCAGAGUUCAUCUUGCUCUGAUGCCCCCAUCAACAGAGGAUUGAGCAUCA` is reported as 0.707 ratio.
For `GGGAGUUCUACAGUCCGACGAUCCACUAGUACCCUACCAGCCUACCGACCUCUGGUCUGUGCACAGCUUCAGAUGUUACCGUCUAGCUAGAUUUUUAUUUAAAAUAUGAAAAACUGCUUUUCCCAAGAUGUUUUUUAAAAACACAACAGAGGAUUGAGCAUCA`, the bound/input enrichment was 0.93 ratio.

Study 4 — method: protein-binding microarray; molecule type: double-stranded DNA, one strand shown; sample: in vitro; concentration: 250 nM; notes: 60-bp whole probe; together with: salmon DNA 0.4 mg/ml; reference: random background probes; direction: higher = stronger binding; shared flanks, not repeated: GCCTAGCAC … GTCTTGATTCGCTTGACGCTGCTG
Target: Interferon regulatory factor 5, full length, phosphomimetic (IRF5, Homo sapiens, UniProt Q13568-2, residues 1-514, K96S/S451D/S453D/S456D/S462D)
With `GACTATTCCAGTTTCGAGACGTGCTAG` the log fluorescence was 5.83 z-score.
With `GCTGCCCTCACCATCATCCTGTGCTAG` the log fluorescence was -0.173 z-score.
The log fluorescence of `GACGGTATCCTACTGCCGACGTGCTAG` is reported as 0.142 z-score.
`GACGATTGCAGTATCGAGACGTGCTAG` has a log fluorescence of 1.57 z-score.
With `TTAGGTATCGGTCGCGGTTAGTGCTAG` the log fluorescence was 6.53 z-score.
`GACGAACTGGGGTATCGAAACGTGCTA` has a log fluorescence of 1.7 z-score.
`GACGGTCTCCTTAACCTGACGTGCTAG` has a log fluorescence of -0.256 z-score.
The log fluorescence of `TTAGGACTGGGTTTCGGTTAGTGCTAG` is reported as 7.58 z-score.
`GACGGTATCGCTTTCGGGACGTGCTAG` has a log fluorescence of 6.92 z-score.
`TTAGAACTTAGACTGGATTAGTGCTAG` gave a log fluorescence of -0.214 z-score.
`CCCTGTTTCCATCTCTCAAAGTGCTAG` gave a log fluorescence of 1.41 z-score.
`TTAGGTTTCGGGCTGGGTTAGTGCTAG` gave a log fluorescence of 6.59 z-score.
`GTAAGTTTCACTTTCCAAAGGTGCTAG` has a log fluorescence of 7.93 z-score.
`TTAGGTTCCCTTTTCCTTGAGTGCTAG` has a log fluorescence of 0.395 z-score.
`TCACATCGTAAGCAAAAACTGTGCTAG` gave a log fluorescence of 0.804 z-score.
With `GACGGTTTCCTTATCCTAACGTGCTAG` the log fluorescence was 0.883 z-score.
`GACGGACTGGGTTTCGGGGCGTGCTAG` gave a log fluorescence of 1.32 z-score.
For `TTAGGTATCAACACTGGGTTAGTGCTA`, the log fluorescence was 0.376 z-score.
`TGAGGTTTCCTACTGCTTTAGTGCTAG` has a log fluorescence of 0.091 z-score.

Single results of other studies
`GSPLAKAFTSTGL` — result for “growth enrichment score”: -0.371 (Saccharomyces cerevisiae; binding, competitive growth deep sequencing; peptide, cyclin D3-Cln2 fusion strain; concentration not given, peptide library 1; direction not given).

Some of these lines once more (study 2):
`AACAGGCC` has an E-score of -0.252.
With `ACCGATCA` the E-score was 0.0508.
`CGGGCATA` gave an E-score of -0.00139.
